Published values of several laboratories.
Lines come from different studies, so protocols differ. ± marks the error that the study gave.

`O=C([O-])c1cccc(CN(CCN(Cc2cn(Cc3ccccc3)nn2)Cc2cccc(C(=O)[O-])n2)Cc2cn(Cc3ccccc3)nn2)n1.[64Cu+2]` gave a tissue uptake of 1.3 %ID/g (nude athymic mice, healthy, femur; intravenous, 1 h, 64Cu label).
The tissue uptake of `CCCC[C@H](NC(=O)CN1CCC(NC(=O)CN2CCN(CC(=O)O)CCN(CC(=O)O)CCN(CC(=O)O)CC2)CC1)C(=O)N[C@H]1CC(=O)NCCCC[C@@H](C(N)=O)NC(=O)[C@H](Cc2c[nH]c3ccccc23)NC(=O)[C@H](CCCNC(=N)N)NC(=O)[C@@H](Cc2ccccc2)NC(=O)[C@H](Cc2c[nH]cn2)NC1=O` [gallium-68 labelled] is reported as 0.3 ± 0.1 %ID/g (C57BL/6J mice male B16-F10 tumour, spleen; 1 h post injection, unblocked).
`O=C([O-])CN1CCN(CC(=O)[O-])CCN(CC(=O)NCCc2ccc3c(c2)C2C=CCC2C(c2cc4c(cc2Br)OCO4)N3)CCN(CC(=O)[O-])CC1.[111In+3]` (centres unmarked) gave a tissue uptake of 1.58 ± 0.41 %ID/g (mice with Hec50 tumour xenograft, Hec50 tumour; 1 h).
`CC(C)[C@H](NC(=O)[C@@H]1CCCN1C(=O)[C@H](CCCNC(=N)N)NC(=O)[C@H](CS)NC(=O)[C@H](Cc1c[nH]c2ccccc12)NC(=O)[C@H](CCCNC(=N)N)NC(=O)[C@@H](Cc1ccccc1)NC(=O)[C@H](Cc1c[nH]cn1)NC(=O)[C@H](CCC(=O)O)NC(=O)[C@H](CS)NC(=O)[C@H](CS)NC(=O)[C@@H]1CC(=O)N[C@@H](CCCNC(=N)N)C(=O)NCC(=O)N[C@@H](CC(=O)O)C(=O)N[C@H](Cc2ccc(O)cc2)C(=O)N1)C(N)=O` [technetium-99m labelled] gave a tissue uptake of 1.35 ± 0.24 %ID (C57 mice B16/F1 melanoma female, intestines; iv, 0.037 MBq, 4 h).
With `NC12CNCCNCC(NCc3ccc(CNC(=O)CCCC(=O)NCc4ccc(-c5nncnn5)cc4)cc3)(CNCCNC1)CNCCNC2.[64Cu+2]` the tissue uptake was 5.2 ± 1.4 %ID/g (athymic nude mice SW1222 xenograft, tumor; 4 h post injection, 48 h accumulation interval, together with: huA33-TCO pretargeting).
With `O=C([O-])CN1CCN(CC(=O)[O-])CCN(CC(=O)[O-])CCN(CC(=O)[O-])CC1.[64Cu+2]` the tissue uptake was 1.53 %ID/g (healthy athymic nude mice, heart; intravenous, 15 min).
`CCCC[C@@H]1NC(=O)[C@@H](NC(=O)[C@H](CCC(=O)O)NC(=O)CNC(=O)CN2CCN(CC(=O)O)CCN(CC(=O)O)CCN(CC(=O)O)CC2)CCCCNC(=O)C[C@@H](C(N)=O)NC(=O)[C@H](C(C)C)NC(=O)[C@@H]2CCCN2C(=O)[C@H](CCCNC(=N)N)NC(=O)CNC(=O)[C@H](Cc2c[nH]c3ccccc23)NC(=O)[C@H](CCCNC(=N)N)NC(=O)[C@@H](Cc2ccccc2)NC(=O)[C@H](Cc2c[nH]cn2)NC(=O)[C@H](CCC(=O)O)NC1=O` [gallium-67 labelled] gave a tissue uptake of 0.42 ± 0.01 %ID/g (C57 mice, B16/F10 lung metastatic melanoma, liver; intravenous, 0.037 MBq, 2 h).
`CCCC[C@H](NC(=O)CNC(=O)CNC(=O)CN1CCN(CC(=O)O)CCN(CC(=O)O)CCN(CC(=O)O)CC1)C(=O)N[C@H]1CC(=O)NCCCC[C@@H](C(N)=O)NC(=O)[C@H](Cc2c[nH]c3ccccc23)NC(=O)[C@H](CCCNC(=N)N)NC(=O)[C@@H](Cc2ccccc2)NC(=O)[C@H](Cc2c[nH]cn2)NC1=O` [gallium-67 labelled] gave a tissue uptake of 25.5 ± 2.22 %ID/g (female C57 mice, B16/F1 melanoma, tumor; intravenous, 0.037 MBq, 2 h).

Excerpt of the above:
With `NC12CNCCNCC(NCc3ccc(CNC(=O)CCCC(=O)NCc4ccc(-c5nncnn5)cc4)cc3)(CNCCNC1)CNCCNC2.[64Cu+2]` the tissue uptake was 5.2 ± 1.4 %ID/g (athymic nude mice SW1222 xenograft, tumor; 4 h post injection, 48 h accumulation interval, together with: huA33-TCO pretargeting).
